# Measured values gathered from unrelated publications.
# Compare with care: the assays were run in different laboratories. ± gives the spread as reported.
Structure (SMILES),assay,test system,conditions,scale,measurement,value
CCCC[C@H](NC(=O)[C@@H](NC(=O)[C@H](CC(=O)O)NC(=O)[C@H](CCC(N)=O)NC(=O)[C@H](CC(C)C)NC(=O)[C@H](CC(C)C)NC(=O)[C@H](CCCN)NC(=O)[C@H](CCCNC(=N)N)NC(=O)[C@H](C)NC(=O)[C@H](CO)NC(=O)[C@H](CC(C)C)NC(=O)[C@H](CCC(N)=O)NC(=O)[C@H](CC)NC(=O)[C@H](CC(C)C)NC(=O)[C@@H](NC(=O)[C@H](CCCN)NC(=O)[C@H](CCCNC(=N)N)NC(=O)[C@H](Cc1ccc(O)cc1)NC(=O)[C@H](CO)NC(=O)[C@H](CCC(N)=O)NC(=O)[C@@H](NC(=O)[C@H](Cc1ccccc1)NC(=O)[C@@H](NC(=O)[C@H](C)NC(=O)[C@H](CC(=O)O)NC(=O)[C@@H](C)NC(=O)[C@H](Cc1ccc(O)cc1)N(C)C(C)=O)[C@@H](C)CC)[C@@H](C)O)C(C)C)[C@@H](C)CC)C(=O)N[C@@H](CC(=O)O)C(=O)NCCCCNC(=N)N,GH release,"male rat, serum","subcutaneous, dose not given, 15 min",relative to: GHRH(1-29)NH2,relative potency,18.8
COC1OC(C)C(OS(=O)(=O)O)C(OC2OC(C)C(OS(=O)(=O)O)C(OC3OC(C)C(OS(=O)(=O)O)C(OC4OC(C)C(OS(=O)(=O)O)C(OC5OC(C)C(OS(=O)(=O)O)C(OC6OC(C)C(OS(=O)(=O)O)C(OC7OC(C)C(OS(=O)(=O)O)C(OC8OC(C)C(OS(=O)(=O)O)C(OC9OC(C)C(OS(=O)(=O)O)C(OC%10OC(C)C(OS(=O)(=O)O)C(OS(=O)(=O)O)C%10OS(=O)(=O)O)C9OS(=O)(=O)O)C8OS(=O)(=O)O)C7OS(=O)(=O)O)C6OS(=O)(=O)O)C5OS(=O)(=O)O)C4OS(=O)(=O)O)C3OS(=O)(=O)O)C2OS(=O)(=O)O)C1OS(=O)(=O)O (centres unmarked),clotting time,human plasma,,,concentration doubling APTT,14.5 µg/mL
COc1cc(Cn2ccc3cc(C(=O)NCC45CC6CC(CC(C6)C4)C5)ccc32)ccc1C(=O)NO,immunohistochemistry,"5xFAD mice, brain","intraperitoneal, 10 mg/kg daily, 2 months",relative to: vehicle,ASC burden,decreased
CCCC[C@H](NC(=O)[C@@H](NC(=O)[C@H](CC(=O)O)NC(=O)[C@H](CCC(N)=O)NC(=O)[C@H](CC(C)C)NC(=O)[C@H](CC(C)C)NC(=O)[C@H](CCCN)NC(=O)[C@H](CCCNC(=N)N)NC(=O)[C@H](C)NC(=O)[C@H](CO)NC(=O)[C@H](CC(C)C)NC(=O)[C@H](CCC(N)=O)NC(=O)[C@H](CC)NC(=O)[C@H](CC(C)C)NC(=O)[C@@H](NC(=O)[C@H](CCCN)NC(=O)[C@H](CCCNC(=N)N)NC(=O)[C@H](Cc1ccc(O)cc1)NC(=O)[C@H](CO)NC(=O)[C@H](CCC(N)=O)NC(=O)[C@@H](NC(=O)[C@H](Cc1ccccc1)NC(=O)[C@@H](NC(=O)[C@H](C)NC(=O)[C@H](CC(=O)O)NC(=O)[C@H](C)NC(=O)CCc1ccc(O)cc1)[C@@H](C)CC)[C@@H](C)O)C(C)C)[C@@H](C)CC)C(=O)N[C@@H](CC(=O)O)C(=O)N[C@@H](CCCNC(=N)N)C(=O)NCCCCC(N)=O,GH release,"male rat, serum","subcutaneous, dose not given, 30 min",relative to: GHRH(1-29)NH2,relative potency,126
CNC1CCC(N(Cc2cccc(-c3ccncc3)c2)C(=O)c2sc3ccccc3c2Cl)CC1 (centres unmarked),,chick neural plate explants,22 h,,concentration inducing MNR2,10 to 200 nM
N=C(N)NCCC[C@@H](N)C(=O)NCC(=O)N[C@H](CCC(=O)O)C(=O)N[C@H](CCCNC(=N)N)C(=O)N1CCC[C@@H]1C(=O)N1CCC[C@@H]1C(=O)N[C@H](CCCNC(=N)N)C(N)=O,,nude mouse C6 subcutaneous tumour,"intravenous, 4 µmol/kg, 30 min, together with: Evans blue 1 mg intravenous",relative to: PBS control,Evans blue tumour permeation increase,36.4%
C[C@@H](O)[C@H](N)C(=O)N1CCC[C@H]1C(=O)NCC(=O)NCC(=O)O,"diketopiperazine formation, Arrhenius plot, ESI-MS",1-propanol,"70, 80, 90 °C, 0.5% acetic acid",,activation energy,17.7 ± 2.15 kcal/mol
COc1cc2c(cc1OC)-c1cc3ccc(OC)c(OC)c3c[n+]1CC2,,"rat, STZ-induced diabetic, liver","oral, 12 mg/kg, day 28",,TBARS,2.97 ± 0.83 nmol MDA/mg protein
CNC(=O)N(C)c1ccc(C(=O)Nc2ccc(C)cc2C(=O)Nc2ccc(Cl)cn2)c(F)c1,,human plasma,,,concentration doubling prothrombin time,10 ± 2 µM
COc1ccc2c(c1)c(CC(=O)OCC(=O)c1ccccc1)c(C)n2C(=O)c1ccc(Cl)cc1,hot plate test,BALB/c mice,"50 mg/kg, 30 min",,latency of nociceptive response,13.6 ± 1.23 s
COc1cccc(OCCN2CCC[C@H](CN3CCc4cc(OC)c(OC)cc4CC3=O)C2)c1,,"VTA dopamine neurons, stress-naive female mice","intraperitoneal, 1 mg/kg",relative to: baseline,burst firing (%SWB),no effect
CCCC[C@H](NC(=O)[C@@H](NC(=O)[C@H](CC(=O)O)NC(=O)[C@H](CCC(N)=O)NC(=O)[C@H](CC(C)C)NC(=O)[C@H](CC(C)C)NC(=O)[C@H](CCCN)NC(=O)[C@H](CCCNC(=N)N)NC(=O)[C@H](C)NC(=O)[C@H](CO)NC(=O)[C@H](CC(C)C)NC(=O)[C@H](CCC(N)=O)NC(=O)[C@H](CC)NC(=O)[C@H](CC(C)C)NC(=O)[C@@H](NC(=O)[C@H](CCCN)NC(=O)[C@H](CCCNC(=N)N)NC(=O)[C@H](Cc1ccc(O)cc1)NC(=O)[C@H](CO)NC(=O)[C@H](CCC(N)=O)NC(=O)[C@@H](NC(=O)[C@H](Cc1c(F)c(F)c(F)c(F)c1F)NC(=O)[C@@H](NC(=O)[C@H](C)NC(=O)[C@H](CC(=O)O)NC(=O)[C@@H](C)NC(=O)[C@H](Cc1ccc(O)cc1)NC)[C@@H](C)CC)[C@@H](C)O)C(C)C)[C@@H](C)CC)C(=O)N[C@@H](CC(=O)O)C(=O)N[C@@H](CCCNC(=N)N)C(=O)NC,GH release,"rat, male, serum","subcutaneous, dose not given, 15 and 30 min",relative to: reference GHRH agonist JI-38,relative potency,1 to 4 fold
Cc1ccc([C@@H]2O[C@H](CO)[C@@H](O)[C@H](O)[C@H]2O)cc1Cc1ccc(-c2ccc(F)cc2)s1,,"rabbit, STZ-nicotinamide type 2 diabetes, serum","dose not given, 28 days",,serum AST activity,163 ± 0.47 U/L
COc1ccc(C2CC(c3ccc(C)cc3)=Nc3ccccc3S2)cc1OC (centres unmarked),,"Wistar rat, STZ-induced diabetes, serum","20 mg/kg, 28 days",,total cholesterol,133 mg/dL
Sc1nnc(-c2ccccc2)o1,H2O2 scavenging,,,,IC50,121 ± 4.4 µM
CCCC[C@H](NC(=O)[C@@H](NC(=O)[C@H](CC(=O)O)NC(=O)[C@H](CCC(N)=O)NC(=O)[C@H](CC(C)C)NC(=O)[C@H](CC(C)C)NC(=O)[C@H](CCCN)NC(=O)[C@H](CCCNC(=N)N)NC(=O)[C@H](C)NC(=O)[C@H](CO)NC(=O)[C@H](CC(C)C)NC(=O)[C@H](CCC(N)=O)NC(=O)[C@H](CC)NC(=O)[C@H](CC(C)C)NC(=O)[C@@H](NC(=O)[C@H](CCCN)NC(=O)[C@H](CCCNC(=N)N)NC(=O)[C@H](Cc1ccc(O)cc1)NC(=O)[C@H](CO)NC(=O)[C@H](CCC(N)=O)NC(=O)[C@@H](NC(=O)[C@H](Cc1ccccc1)NC(=O)[C@@H](NC(=O)[C@H](C)NC(=O)[C@H](CC(=O)O)NC(=O)[C@H](C)NC(=O)CCc1ccc(O)cc1)[C@@H](C)CC)[C@@H](C)O)C(C)C)[C@@H](C)CC)C(=O)N[C@@H](CC(=O)O)C(=O)N[C@@H](CCCNC(=N)N)C(=O)NC,GH release,"male rat, serum","subcutaneous, dose not given, 15 min",relative to: GHRH(1-29)NH2,relative potency,69.6
C=C(c1cc(F)c(C(=O)O)c(F)c1)c1cc2c(cc1C)C(C)(C)CCC2(C)C,"RNA sequencing, measured: Scd1","rat, brain","dose not given, 24 h",relative to: vehicle,log2 fold change,-0.3
CCCC[C@H](NC(=O)[C@@H](NC(=O)[C@H](CC(=O)O)NC(=O)[C@H](CCC(N)=O)NC(=O)[C@H](CC(C)C)NC(=O)[C@H](CC(C)C)NC(=O)[C@H](CCCN)NC(=O)[C@H](CCCNC(=N)N)NC(=O)[C@H](C)NC(=O)[C@H](CO)NC(=O)[C@H](CC(C)C)NC(=O)[C@H](CCC(N)=O)NC(=O)[C@H](CC)NC(=O)[C@H](CC(C)C)NC(=O)[C@@H](NC(=O)[C@H](CCCN)NC(=O)[C@H](CCCNC(=N)N)NC(=O)[C@H](Cc1ccc(O)cc1)NC(=O)[C@H](CO)NC(=O)[C@H](CCC(N)=O)NC(=O)[C@@H](NC(=O)[C@H](Cc1ccccc1)NC(=O)[C@@H](NC(=O)[C@H](C)NC(=O)[C@H](CC(=O)O)NC(=O)[C@H](C)NC(=O)[C@H](Cc1ccc(O)cc1)NC)[C@@H](C)CC)[C@@H](C)O)C(C)C)[C@@H](C)CC)C(=O)N[C@@H](CC(=O)O)C(=O)NCCCCNC(=N)N,GH release,"rat, male, serum","subcutaneous, 3 µg/kg, 15 min",relative to: reference GHRH agonist JI-38,relative potency,1.45
CC[C@H](C)[C@H](NC(C)=O)C(=O)N[C@H]1CSCC[C@@H](C(=O)N(C)[C@H](C(N)=O)[C@@H](C)CC)NC(=O)[C@H](CCCNC(=N)N)NC(=O)[C@H](Cc2c[nH]cn2)NC(=O)[C@H](C)NC(=O)CN(C)C(=O)[C@H](Cc2c[nH]c3ccccc23)NC(=O)[C@H](CC(=O)O)NC(=O)[C@H](CCC(N)=O)NC(=O)[C@H](Cc2cn(C)c3ccccc23)NC(=O)[C@H](C(C)C)NC1=O,"classical complement activation, ELISA C3b deposition",normal human plasma,sulfoxide oxidized,relative to: untreated peptide,IC50 ratio,4 to 6 fold
CC(=O)N[C@@H](CC(N)=O)C(=O)NCC(=O)N[C@@H](C)C(=O)N[C@@H](C)C(N)=O,1H NMR,sodium phosphate buffer 50 mM,"pH 5.1, 55 °C",,rate constant succinimide to β-Asp,0.0531 h⁻¹
CCCCCCCCCCCCCCCC(=O)OCC(CSC[C@H](N)C(=O)N[C@@H](CO)C(=O)N[C@@H](CCCCN)C(=O)N[C@@H](CCCCN)C(=O)N[C@@H](CCCCN)C(=O)N[C@@H](CCCCN)C(=O)NCCCCCC(=O)N[C@@H](CCCCN)C(=O)N[C@@H](CC(C)C)C(=O)N[C@H](C(=O)N[C@@H](Cc1ccccc1)C(=O)N[C@@H](Cc1ccccc1)C(=O)N[C@@H](Cc1ccc2ccccc2c1)C(=O)O)C(C)C)OC(=O)CCCCCCCCCCCCCCC (some centres unmarked),,APP/PS1 mouse,"intracortical, dose not given, 5 d",relative to: vehicle,OC-positive plaque area,decreased
O=C1c2c(O)cc3oc4cc(O)c(O)cc4c3c2OC1Cc1ccc(O)c(O)c1 (centres unmarked),"ABTS scavenging, absorbance",,,,EC50,910 µM
C[C@@H](O)[C@@H]1NC(=O)[C@H](CCCCN)NC(=O)[C@@H](Cc2ccc(NC(N)=O)cc2)NC(=O)[C@H](Cc2ccc(NC(=O)[C@@H]3CC(=O)NC(=O)N3)cc2)NC(=O)[C@H](NC(=O)[C@H](Cc2ccc(Cl)cc2)NC(=O)CN2CCN(CC(=O)O)CCN(CC(=O)O)CCN(CC(=O)O)CC2)CSSC[C@@H](C(=O)N[C@H](Cc2ccc(O)cc2)C(N)=O)NC1=O [gallium-68 labelled],PET/CT,"neuroendocrine tumour patients, lesions, all sites",60 min post-injection,,median lesion SUVmax,13
Cc1cc(O)c(C=O)c2c1C(=O)Oc1c(CO)c(O)c3c(c1O2)C(O)OC3=O (centres unmarked),,"rat, male, streptozotocin-induced diabetes, seminal vesicle","oral, 5 mg/kg, 9 weeks",,relative organ weight,0.13 ± 0.01 g
CCCC[C@H](NC(=O)[C@@H](NC(=O)[C@H](CC(=O)O)NC(=O)[C@H](CCC(N)=O)NC(=O)[C@H](CC(C)C)NC(=O)[C@H](CC(C)C)NC(=O)[C@H](CCCN)NC(=O)[C@H](CCCNC(=N)N)NC(=O)[C@H](C)NC(=O)[C@H](CO)NC(=O)[C@H](CC(C)C)NC(=O)[C@H](CCC(N)=O)NC(=O)[C@H](CC)NC(=O)[C@H](CC(C)C)NC(=O)[C@@H](NC(=O)[C@H](CCCN)NC(=O)[C@H](CCCNC(=N)N)NC(=O)[C@H](Cc1ccc(O)cc1)NC(=O)[C@H](CO)NC(=O)[C@H](CCC(N)=O)NC(=O)[C@@H](NC(=O)[C@H](Cc1ccccc1)NC(=O)[C@@H](NC(=O)[C@H](C)NC(=O)[C@H](CC(=O)O)NC(=O)[C@H](C)NC(=O)[C@H](Cc1ccc(O)cc1)NC)[C@@H](C)CC)[C@@H](C)O)C(C)C)[C@@H](C)CC)C(=O)N[C@@H](CC(=O)O)C(=O)N[C@@H](CCCNC(=N)N)C(=O)NC,GH release,"rat, male, serum","subcutaneous, dose not given, 15 and 30 min",relative to: reference GHRH agonist JI-38,relative potency,1 to 4 fold
CCCCCCCCCC(=O)NCCCC[C@@H](NC(=O)[C@@H](CC(C)C)NC(=O)[C@@H](CCCCN)NC(=O)[C@@H](CCCCNC(=O)[C@@H](CC(C)C)NC(=O)[C@@H](CCN)NC(=O)[C@@H](CCCCNC(=O)[C@@H](Cc1ccccc1)NC(=O)[C@H](N)CCCN)NC(=O)[C@@H](Cc1ccccc1)NC(=O)[C@H](N)CCCN)NC(=O)[C@@H](CC(C)C)NC(=O)[C@@H](CCN)NC(=O)[C@@H](CCCCNC(=O)[C@@H](Cc1ccccc1)NC(=O)[C@H](N)CCCN)NC(=O)[C@@H](Cc1ccccc1)NC(=O)[C@H](N)CCCN)C(N)=O,carboxyfluorescein release,EYPC vesicles,"10 µg/mL, 250 s, pH 7.4, 25 °C",relative to: Triton X-100,leakage,5%
